Experimental data of several laboratories.
Compare with care: the assays were run in different laboratories. “And” joins repeats or separate records; there may be more than shown. Numbers after ± are the reported error.
PTGS2: Prostaglandin G/H synthase 2 (PTGS2, Homo sapiens, UniProt P35354)
Coelenterazine h 2-monooxygenase: Coelenterazine h 2-monooxygenase (Renilla reniformis, UniProt P27652)
Protein-S-isoprenylcysteine O-methyltransferase: Protein-S-isoprenylcysteine O-methyltransferase (Homo sapiens, UniProt O60725)
USP5: Ubiquitin carboxyl-terminal hydrolase 5 (USP5, Homo sapiens, UniProt P45974)
NEK8: Serine/threonine-protein kinase Nek8 (NEK8, Homo sapiens, UniProt Q86SG6)

CS(=O)(=O)c1ccc(-n2cc(C=NN=c3[nH]c(-c4ccc(Br)cc4)cs3)c(-c3ccc(Br)cc3)n2)cc1
inhibition (PTGS2; enzyme activity; 0.1 µM): 35.4%

CC(C)Oc1ccc(CNCCC2(C(C)C)CCOC(C)(C)C2)cc1 (stereo not drawn)
inhibition (Coelenterazine h 2-monooxygenase; luciferase activity, inhibitor, luminescence counter-screen; concentration not given, test 1): 66.4% and 66.3%

CCCCCCCCN(CCC(=O)Nc1ccccc1)C(=O)c1ccccc1C#N
inhibition (Protein-S-isoprenylcysteine O-methyltransferase; enzyme activity; Sf9 membranes; 50 µM, added: [3H]S-adenosylmethionine, biotin-farnesyl-L-cysteine): 47%

CN(C)C/C=C/C(=O)Nc1ccc2nc(NCCCCCN(C)C)nc(NCCCCCCN(C)C)c2c1
inhibition (DNA (cytosine-5)-methyltransferase 3A, with DNMT3L (DNMT3A, Homo sapiens, UniProt Q9Y6K1); enzyme activity; 10 µM): -69%

N#C/C(=C\c1ccc(N2CCOCC2)o1)C(=O)NCC1CCCO1 (stereo not drawn)
inhibition (USP5; enzyme activity, inhibitor; 17 µM): 18%

C[Si]1(C[C@H](CN)CC(=O)O)CCCC1
inhibition (NMDA receptor, rat; binding, radioligand binding; 70 µM, added: [3H]TCP): -1%

On1ccc2c(Br)cncc21
inhibition (USP5; enzyme activity, inhibitor; 17 µM): 77%

CS(=O)(=O)c1ccc(-n2cc(C=NN=c3[nH]c(-c4ccc(Br)cc4)cs3)c(-c3ccc([N+](=O)[O-])cc3)n2)cc1 (mixture of isomers)
inhibition (PTGS2; enzyme activity; 1 µM): 28.5%

Cc1cc(NC(=O)C(=O)N2C[C@@H](C)CC[C@@H]2c2ccc3scnc3c2)cnc1N
inhibition (PRMT5-containing complexes; enzyme activity, HotSpot radiometric; 10 µM, panel of 38 methyltransferases, added: 3H-SAM 1 µM): > 90%

COC(=O)C(C#N)=Cc1ccc(C)o1
inhibition (USP5; enzyme activity, inhibitor; 17 µM): 10%

CC1CCC(C(C)C)C(OC(=O)Cn2c(-c3ccc(Br)cc3)[n+](C)c3ccccc32)C1.[Cl-] (stereo not drawn)
inhibition (Coelenterazine h 2-monooxygenase; luciferase activity, inhibitor, luminescence counter-screen; concentration not given, test 2): 103% and 128%

CCCCCCCCN(CCC(=O)Nc1ccccc1)C(=O)c1ccco1
inhibition (Protein-S-isoprenylcysteine O-methyltransferase; enzyme activity; Sf9 membranes; 50 µM, added: [3H]S-adenosylmethionine, biotin-farnesyl-L-cysteine): 49%

CC(=O)C12NC(C)(C)CC1(C)C(=O)C1=C2c2c(c3c4n2C(C)(C)CC2=C4C4(CC(C)(C)NC(C)(C4)C2=O)CC3(C)C)C(=O)C(C)(C)N1 (single isomer, unassigned; (+))
inhibition (Potassium voltage-gated channel subfamily KQT member 2 (KCNQ2, Homo sapiens, UniProt O43526); potassium current, whole-cell patch clamp; HEK293T; 40 µM): 0 ± 0.01%

CC=C(C)C(=O)OC1CC2C(C=C(C)C3C(OC(C)=O)CC(=O)C13C)OC(=O)C2C (stereo not drawn)
inhibition (PTGS2; enzyme activity, inhibitor; 3.9 µg/mL): 0%

Cc1ccc(C)n1-c1cc(Cl)ccc1C(=O)O
inhibition (USP5; enzyme activity, inhibitor; 17 µM): 64%

NNC1(c2nnnn2CCc2c[nH]c3ccccc23)CCN(C(=O)OCc2ccccc2)CC1
inhibition (Endothiapepsin (EAPA, Cryphonectria parasitica, UniProt P11838); enzyme activity, inhibitor; 200 µM): 89.5%

O=C1c2sc(-c3ccc(N4CCC(F)C4)nc3F)nc2CCN1c1cccnc1 (stereo not drawn)
inhibition (TAR DNA-binding protein 43, aggregated (TARDBP, Homo sapiens, UniProt Q13148); radioligand binding; homogenate, FTLD-TDP, type A; 16 nM, added: [3H]ACI-19626): 2.57% and 9.36%

NS(=O)(=O)c1ccc(CCNCc2ccc(-c3ccc(Br)cc3)o2)cc1
inhibition (D(3) dopamine receptor (DRD3, Homo sapiens, UniProt P35462); enzyme activity, inhibitor; 10 µM): 42.8%

CO[C@@H]1OC[C@@H](O)[C@H](O)[C@H]1O
inhibition (PTGS2; enzyme activity, inhibitor; 1.95 µg/mL): 29.2%

NC(=O)[C@@H](O)C[C@H]1CCc2sc3ncnc(O[C@H]4CC[C@H](N5CCOCC5)CC4)c3c21
inhibition (cAMP-dependent protein kinase catalytic subunit gamma (PRKACG, Homo sapiens, UniProt P22612); enzyme activity, inhibitor; 10 µM): 4%

COC(=O)c1sc2nc[nH]c(=O)c2c1CC(=O)O
inhibition (USP5; enzyme activity, inhibitor; 17 µM): 44%

CCCCCCCCN(CCC(=O)Nc1ccccc1)C(=O)c1ccc(C#N)cc1
inhibition (Protein-S-isoprenylcysteine O-methyltransferase; enzyme activity; Sf9 membranes; 50 µM, added: [3H]S-adenosylmethionine, biotin-farnesyl-L-cysteine): 66%

Cc1ccc(-c2ccc([C@H]3[C@@H](F)[C@@H](F)C[C@@H](F)[C@H]3F)cc2)cn1
hepatic clearance (liver microsome stability; human liver microsomes; 1 µM, without NADPH): 3.9 mL/min/kg

Cc1ccc(-c2nn(-c3ccc(S(C)(=O)=O)cc3)cc2C=NN=c2[nH]c(-c3ccc([N+](=O)[O-])cc3)cs2)cc1
inhibition (PTGS2; enzyme activity; 10 µM): 73.2%

O=C(NCc1cccc(Cl)c1)c1ccc(C2CCCCC2)cc1
hepatic clearance (liver microsome stability; human liver microsomes; 1 µM, without NADPH): 11 mL/min/kg

COc1cc(C=NCCN=Cc2ccc(O)c(OC)c2)ccc1O
inhibition (USP5; enzyme activity, inhibitor; 17 µM): 11%

COc1ccccc1Nc1nc(NCC2CCCO2)c2ccccc2n1 (stereo not drawn)
inhibition (Coelenterazine h 2-monooxygenase; luciferase activity, inhibitor, luminescence counter-screen; concentration not given, test 2): 97% and 106%

Cc1oc2c(c1C(=O)NCN1CCOCC1)C(=O)c1ccccc1C2=O
inhibition (USP5; enzyme activity, inhibitor; 17 µM): 14%

C[Si](C)(C)C[C@@H](CN)CC(=O)O
inhibition (P2Y receptor, rat; binding, radioligand binding; 75 µM, added: labelled ATP analogue): 18%

CCn1cc(C(=O)O)c(=O)c2c(N)c(F)c(NC3CCCCC3)cc21
inhibition (NEK8; kinase activity; 0.1 µM, added: ATP at Km): -20.5%

COc1cccc(-c2cc(F)c(NC(=O)Nc3sc(C)nc3C(=O)O)c(F)c2)c1
inhibition (Dihydroorotate dehydrogenase (quinone), mitochondrial (DHODH, Homo sapiens, UniProt Q02127); enzyme activity, DCIP colorimetric; 5.00 µM): 47.4% and 46.9% and 47.8%

CS(=O)(=O)c1ccc(-n2cc(C=NN=c3[nH]c(-c4ccc([N+](=O)[O-])cc4)cs3)c(-c3ccc([N+](=O)[O-])cc3)n2)cc1
inhibition (PTGS2; enzyme activity; 0.01 µM): 7.84%

O=C(CCCCCCc1ccccc1)c1ncc(-c2ccc(CBr)cn2)o1
inhibition (recombinant FAAH (rat); enzyme activity; 80 nM, 3 h, 22 °C, before dialysis): ~80%

C/C=C/C(=O)Nc1ccc2nc(NCCCCCN(C)C)nc(NCCCCCCN(C)C)c2c1
inhibition (Histone-lysine N-methyltransferase SUV39H2 (SUV39H2, Homo sapiens, UniProt Q9H5I1); enzyme activity, inhibitor, radiometric; 10 µM): -4%

O=c1[nH]c(=S)c2c(n1N1CCOCC1)CCC2
inhibition (USP5; enzyme activity, inhibitor; 17 µM): 4%

CN(Cc1ccc(/C=C/C(=O)NO)cc1)CC12CC3CC(CC(C3)C1)C2
inhibition (human 5-HT6 receptor; agonist radioligand binding; 0.05 µM): -12%

O=C1c2sc(-c3ccc(N4CCC(CO)CC4)nc3F)nc2CCN1c1cccnc1
inhibition (sodium channel site 2; radioligand binding; 1 µM, added: antagonist radioligand): -14%

CS(=O)(=O)Nc1cccc(-c2csc3cnc(Nc4ccc(N5CCN(CCCCCOc6cccc7c6C(=O)N(C6CCC(=O)NC6=O)C7=O)CC5)cc4)nc23)c1 (stereo not drawn)
inhibition (NEK8; probe labelling, inhibitor, KiNativ chemoproteomics; MOLT-4; 1 µM): 22.3%

C/C=C(/C)C(=O)O[C@@H]1C=C(C)CC[C@]2(O)[C@@H](C(C)C)CC(=O)[C@]12C
inhibition (PTGS2; enzyme activity, inhibitor; 31.25 µg/mL): 0%
